Measurements of several laboratories.
Numbered parts are unrelated; each lists some results of a single study. Changes are numbered by the printed parent chain.

Series 1
Target: CCNE1, cyclin fold, Cln2 fusion (human)
Method: yeast growth competition, sequencing
Sample: yeast
Setting: strong parent motif
Relative to: not given
Direction: higher = stronger binding
Measurement: normalised enrichment score
Starting sequence: CDC25A docking peptide (human); PPHRRRLLFACSP
QPHRRRLLFACSP [P1Q]: 1.21
PPHRRRLLFACRP [S12R]: 1.17
PSHRRRLLFACSP [P2S]: 1.05
PPHRRRLLFHCSP [A10H]: 1.5
PPHRRRLLQACSP [F9Q]: -0.208
PPHRFRLLFACSP [R5F]: 1.55
PPHRRRLLHACSP [F9H]: 0.515
PPLRRRLLFACSP [H3L]: 1.07

Series 2
Target: RING finger protein unkempt homolog, zinc fingers 1-6, GST-SBP tag (UNK, Homo sapiens, UniProt Q9C0B0, residues 30-357)
Method: RNA Bind-n-Seq
Molecule type: RNA
Sample: in vitro
Tested at: not given
Setting: RNA with constant flanks, human and mouse sites, ends assumed
Relative to: input RNA pool
Direction: higher = stronger binding
Measurement: bound/input enrichment
Target sequence (chain): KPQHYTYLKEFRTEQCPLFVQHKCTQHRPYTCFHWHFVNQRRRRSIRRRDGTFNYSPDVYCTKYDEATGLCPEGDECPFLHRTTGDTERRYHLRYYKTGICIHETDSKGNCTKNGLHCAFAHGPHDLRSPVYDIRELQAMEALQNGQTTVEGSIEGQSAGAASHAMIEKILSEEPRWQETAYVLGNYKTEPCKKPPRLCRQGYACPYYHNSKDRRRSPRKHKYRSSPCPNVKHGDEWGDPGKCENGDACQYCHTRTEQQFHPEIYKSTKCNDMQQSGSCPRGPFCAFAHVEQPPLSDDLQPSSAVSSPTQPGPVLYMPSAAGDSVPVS
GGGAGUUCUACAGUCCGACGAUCUGCAAAGGACUUGCAGCUUUGCCCCACUCAUGCCUGGAAAGGGCCAAGGAGAUUAAGAUCAAGUUGGGAAUUCUCCUCCAGAAGCCAGACUCAGUUGGUGACCUUGUCAUUCCGUACAAUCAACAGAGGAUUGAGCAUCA: 0.0952 ratio
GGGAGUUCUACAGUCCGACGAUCGAAUUUGCAGCAGGUCCUGCUCAAUCUGGAAUUUUGUCAGAUCGUGAAGUGGUAAACCUCUUUCUUCAUUUUACUGUCAACCCUAAACCCCGAGUUGAAUACAUUGACCGACCAAGAUGCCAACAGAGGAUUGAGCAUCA: 0.239 ratio
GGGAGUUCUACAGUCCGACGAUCGCUAAGAUUGGGCUUAUUCAGUUUUGCUUAUCUGCUCCUAAAACAGAUAUGGAUAAUCAAAUAGUAGUAUCUGACUAUGCCCAGAUGGAUCGAGUGCUUCGAGAGGAGAGAGCCUAUAUUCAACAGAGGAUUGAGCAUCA: 0.224 ratio
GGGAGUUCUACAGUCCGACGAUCAGUGACUUAUCUGAGAAUGUAGAGUCAGUGGUUAAUGAAGAAAAAAUAACAGAGAGUUCCCUAGUAGAAAUUACUGAACAUAAAGAUUUUACACUAAAAACAGAGGAGCUUAUAGAGAGCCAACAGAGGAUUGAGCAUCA: 2.85 ratio
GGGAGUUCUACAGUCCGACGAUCAACAAUGAUAUUAGUAGUCUGCCCUGCUCAUUGGGAAAUCUUCAUUUGAAAUUCCUGGCACUAGAAGGAAAUCCUCUAAGAACCAUUCGAAGAGAAAUUAUAGCUAAAGGAACUCAAGAACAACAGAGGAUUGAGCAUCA: 0.228 ratio
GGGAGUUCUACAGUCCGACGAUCAAUAUUAAAGAAGCUGCCAGGUGGAUGGAUGAAGCCCAGGCCCUGGACACAGCAGACAGAUUUAUUAAUUCCAAGUGUGCAAAAUACAUGUUAAAAGCCAACCUGAUUAAAGAGGCUGAACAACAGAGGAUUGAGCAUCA: 0.251 ratio
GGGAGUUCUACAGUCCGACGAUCGCGAGAGGCGGCGCCGCUCCCAAGAUGUCGCAGACGGCCAUGUCCGAAACCUACGAUUUUUUGUUUAAGUUCUUGGUUAUUGGAAAUGCAGGAACUGGCAAAUCUUGCUUACUUCAUCAGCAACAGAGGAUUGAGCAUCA: 0.0748 ratio
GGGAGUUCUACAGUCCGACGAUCAUUUUAUACCCCAAUAAUCAACUCGUUUUUAUAUUAAUGUACUUGUUUCUCUGUUGUAAGAAUAGGCAUUAACACAAAGGAGGCGUCUCGGGAGAGGAUUAGGUUCCAUCCUUUACGUGUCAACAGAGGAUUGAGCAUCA: 11 ratio

Series 3
Target: Histone acetyltransferase KAT6A, both winged helices, GST fusion (KAT6A, Homo sapiens, UniProt Q92794, residues 1-181)
Method: protein binding microarray
Molecule type: double-stranded DNA, one strand shown
Sample: in vitro
Tested at: not given
Setting: 8-mer, flanks averaged, mean of 2 arrays, mostly near background
Relative to: not given
Direction: higher = stronger binding
Measurement: E-score
Residues (chain): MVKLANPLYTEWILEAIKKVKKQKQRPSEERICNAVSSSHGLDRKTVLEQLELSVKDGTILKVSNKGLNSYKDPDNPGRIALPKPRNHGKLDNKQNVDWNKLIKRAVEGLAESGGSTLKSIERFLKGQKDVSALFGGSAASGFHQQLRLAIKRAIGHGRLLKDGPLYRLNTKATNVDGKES
TCCTGTAA: -0.0962
GCGCTGAA: 0.269
CAGTGGCC: -0.0383
AAGACGCC: 0.16
ACCGGAAA: 0.15

Single results of other studies
PhoQ, residues 284 288 289 292 302 303 GLASVI — fold induction (PhoP, residues 12 14 15 18 19 AWHSL (Escherichia coli, UniProt P23836); Sort-seq, refers to: YFP reporter; E. coli; PhoQ-PhoP variant library, added: 10 µM Mg2+; relative to: high Mg2+ state, higher = stronger signaling): 8.15

Excerpt of the above (series 2):
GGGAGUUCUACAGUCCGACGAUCAACAAUGAUAUUAGUAGUCUGCCCUGCUCAUUGGGAAAUCUUCAUUUGAAAUUCCUGGCACUAGAAGGAAAUCCUCUAAGAACCAUUCGAAGAGAAAUUAUAGCUAAAGGAACUCAAGAACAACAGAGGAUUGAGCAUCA: 0.228 ratio
